Experimental data collected from several papers.
“And” joins repeats or separate records; there may be more than shown.
Cell line: Hs-578T

Compound	test	conditions	scale	measurement	result
Cn1cncc1C1=CN(c2ncnc3[nH]cnc23)CCS1				GI50	5.5 µM
CCCN1CCN(c2ccc3[nH]c(-c4ccc5[nH]c(-c6ccc(OCC)c(OCC)c6)nc5c4)nc3c2)CC1	SRB	10 µM, 48 h		growth percent	-37.2%
C#C[C@@]1(O)[C@@H](CO)O[C@@H](n2cc(Br)c3c(N)ncnc32)[C@@H]1O	SRB	NCI-60 screen		TGI	52.4 µM and > 100 µM
O=C1NC(=NCc2cccs2)S/C1=C\c1ccc2ncccc2c1	MTS	NCI60 panel		IC50	5.83 µM
CCCCN1CCN(c2ccc3[nH]c(-c4ccc5[nH]c(-c6ccc(C(F)(F)F)cc6)nc5c4)nc3c2)CC1	SRB	10 µM, 48 h		growth percent	-64.3%
CCN(CC)c1ccc(C=NNC(=O)CSc2nc3ccccc3c(=O)n2Cc2ccc(S(N)(=O)=O)cc2)c(O)c1	NCI five-dose screen			TGI	> 100 µM
NNc1nc(-c2ccc(Cl)cc2)c2c(NC(=O)c3ccccc3)nnc-2[nH]1	SRB	10 µM, NCI60 single-dose screen	relative to: untreated	cell growth	95.9%
C#C[C@@]1(O)[C@@H](CO)O[C@@H](n2ccc3c(N)ncnc32)[C@@H]1O	SRB	NCI-60 screen		TGI	> 100 µM
Cc1cc(=O)[nH]n1-c1nc(-c2ccc(Cl)cc2)c2c(NC(=O)c3ccccc3)nnc-2[nH]1	SRB	10 µM, NCI60 single-dose screen	relative to: untreated	cell growth	93.6%
O=C(Cc1ccccc1)Nc1nnc(CCSCCc2nnc(NC(=O)Cc3ccccc3)s2)s1	cell proliferation, inhibitor, cell counting	144 h		EC50	3.7 µM
CCCN1CCN(c2ccc3[nH]c(-c4ccc5[nH]c(-c6cc(OC)c(OC)c(OC)c6)nc5c4)nc3c2)CC1	SRB	10 µM, 48 h		growth percent	54.1%
CSc1nc(-c2ccc(Cl)cc2)c2c(NC(=O)c3ccccc3)nnc-2[nH]1	SRB	10 µM, NCI60 single-dose screen	relative to: untreated	cell growth	86.7%

Some of these lines once more:
Compound	test	conditions	scale	measurement	result
CCCCN1CCN(c2ccc3[nH]c(-c4ccc5[nH]c(-c6ccc(C(F)(F)F)cc6)nc5c4)nc3c2)CC1	SRB	10 µM, 48 h		growth percent	-64.3%
Cc1cc(=O)[nH]n1-c1nc(-c2ccc(Cl)cc2)c2c(NC(=O)c3ccccc3)nnc-2[nH]1	SRB	10 µM, NCI60 single-dose screen	relative to: untreated	cell growth	93.6%
